Published values from different studies.
Every numbered part comes from another study and shows a few of its results, in no order. Substitutions count along the parent as printed.

Study 1 — technique: universal PBM; molecule type: double-stranded DNA, one strand shown; matrix: in vitro; tested at: not given; reading: higher = stronger binding
Target: Sal-like protein 4, full length isoform B (SALL4, Homo sapiens, UniProt Q9UJQ4-2, residues 1-616)
Setting: 8-mer, flanks averaged, mean of replicates
Target sequence (chain): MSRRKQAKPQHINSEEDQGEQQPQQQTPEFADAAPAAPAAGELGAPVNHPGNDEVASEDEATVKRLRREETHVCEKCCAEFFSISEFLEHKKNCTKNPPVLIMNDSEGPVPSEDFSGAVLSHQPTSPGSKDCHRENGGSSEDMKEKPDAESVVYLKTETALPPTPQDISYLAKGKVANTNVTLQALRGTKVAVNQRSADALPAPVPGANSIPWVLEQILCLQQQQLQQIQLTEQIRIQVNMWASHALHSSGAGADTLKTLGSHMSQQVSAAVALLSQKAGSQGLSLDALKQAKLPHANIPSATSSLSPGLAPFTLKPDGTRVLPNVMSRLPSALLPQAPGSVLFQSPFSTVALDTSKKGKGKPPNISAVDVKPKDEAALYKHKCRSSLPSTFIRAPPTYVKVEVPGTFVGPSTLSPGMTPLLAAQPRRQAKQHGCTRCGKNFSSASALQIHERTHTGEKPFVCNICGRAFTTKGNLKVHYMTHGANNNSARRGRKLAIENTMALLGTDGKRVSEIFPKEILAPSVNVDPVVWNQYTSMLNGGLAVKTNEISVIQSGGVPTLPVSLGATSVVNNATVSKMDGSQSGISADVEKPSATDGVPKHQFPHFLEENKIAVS
`GAAGAACA` gave an E-score of 0.111.
With `GCCACAAA` the E-score was 0.0486.
The E-score of `AACGAGAG` is reported as 0.0529.
For `AATTGGAC`, the E-score was 0.117.
`GGATAAAA` has an E-score of 0.186.
With `CCCCAACC` the E-score was -0.288.
The E-score of `GCTCGGCC` is reported as -0.331.
`CAGGAGCA` gave an E-score of -0.22.
`GCGGACTA` has an E-score of -0.0478.
`GATTTTGC` has an E-score of -0.115.
The E-score of `ATTACGGG` is reported as 0.0655.
`AACTAACT` has an E-score of 0.0432.
For `TAGCACGA`, the E-score was -0.0565.
For `CTGCAAGA`, the E-score was 0.0323.
`ACGGAGTG` has an E-score of -0.1.
For `AAGTATGT`, the E-score was 0.27.
For `CAGGACGA`, the E-score was -0.189.
With `GACGCATC` the E-score was -0.0732.
`AGTGTACG` has an E-score of 0.0166.
`GTAGACCA` has an E-score of -0.0871.
The E-score of `CGTATTGC` is reported as 0.0283.
For `ATGGCGGG`, the E-score was 0.0381.
With `ATTGCTGC` the E-score was -0.0648.
For `AATCCTAC`, the E-score was -0.0872.
`AAACCGTG` has an E-score of -0.214.

Study 2 — technique: DHFR PCA, deep sequencing; matrix: yeast; with: (+)-ABA 1.4 µM; reference: wild-type fitted maximum; reading: higher = stronger binding
Target: ABI1, truncated, D143A, DHFR fusion (Arabidopsis thaliana)
Setting: methotrexate growth selection, single substitutions
Starting sequence: PYL1, truncated, DHFR fusion (Arabidopsis thaliana); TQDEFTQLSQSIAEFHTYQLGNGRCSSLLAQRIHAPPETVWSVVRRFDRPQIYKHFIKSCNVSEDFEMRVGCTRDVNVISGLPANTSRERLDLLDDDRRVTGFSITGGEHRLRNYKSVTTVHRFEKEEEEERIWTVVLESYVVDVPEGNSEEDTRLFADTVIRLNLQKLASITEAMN; partner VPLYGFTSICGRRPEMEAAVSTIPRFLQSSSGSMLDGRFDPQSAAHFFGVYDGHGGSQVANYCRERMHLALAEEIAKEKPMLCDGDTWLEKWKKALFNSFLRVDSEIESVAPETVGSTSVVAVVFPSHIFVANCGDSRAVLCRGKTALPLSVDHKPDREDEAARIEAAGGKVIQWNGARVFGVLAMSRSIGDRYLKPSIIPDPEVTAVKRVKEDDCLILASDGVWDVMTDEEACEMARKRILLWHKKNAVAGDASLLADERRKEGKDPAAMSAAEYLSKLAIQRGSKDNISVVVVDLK
Under “relative binding score”, `M68Q` is recorded as 20.8%.
`V121E` — result for “relative binding score”: -5.04%.
For `G102L`, “relative binding score” read -5.72%.
Under “relative binding score”, `L166Y` is recorded as -9.96%.
For `V142Y`, “relative binding score” read -5.17%.
For `E64M`, “relative binding score” read 28.4%.
Under “relative binding score”, `Q167T` is recorded as 49.4%.
`L166A` — result for “relative binding score”: 7.68%.
`D65S` — result for “relative binding score”: 38.6%.
`D48I`: “relative binding score” 3.29%.
Under “relative binding score”, `K116T` is recorded as 33.4%.
For `I162A`, “relative binding score” read 10.3%.
For `P146L`, “relative binding score” read 12.1%.
For `T6A`, “relative binding score” read 77.9%.
`I52T` — result for “relative binding score”: 60.3%.
`T120L` — result for “relative binding score”: -2.43%.
`E139V` — result for “relative binding score”: 46.3%.
Under “relative binding score”, `G108K` is recorded as -5.82%.
`P36W`: “relative binding score” 6.48%.
Under “relative binding score”, `E129M` is recorded as 47.8%.
For `R49L`, “relative binding score” read 18.3%.

Study 3 — technique: aptamer microarray, sandwich; molecule type: DNA with 2'F-ANA; matrix: in vitro; tested at: 200 nM; with: Cy3 exosite-II aptamer, 400 nM; reading: higher = stronger binding; strand: GGTTGGTGTGGTTGG
Target: Prothrombin, mature alpha-thrombin (F2, Homo sapiens, UniProt P00734)
Setting: whole 15-mer aptamer, many near background
For `2'F-ANA at 2 4 7 8 11 12`, “mean fluorescence intensity” read 575 a.u.
`2'F-ANA at 2 3 4 6 8 9 12 13 14 15` — result for “mean fluorescence intensity”: 245 a.u.
`2'F-ANA at 1 4 5 7 8 11 12 14 15`: “mean fluorescence intensity” 51.7 a.u.
`2'F-ANA at 2 3 8 9 13 15` — result for “mean fluorescence intensity”: 707 a.u.
Under “mean fluorescence intensity”, `2'F-ANA at 1 2 3 5 6 7 9 12 13 14` is recorded as 82.8 a.u.
For `2'F-ANA at 1 3 7 9 10 13 14 15`, “mean fluorescence intensity” read 55.9 a.u.
Under “mean fluorescence intensity”, `2'F-ANA at 1 2 3 12 13` is recorded as 414 a.u.
For `2'F-ANA at 2 5 6 11 12 13 14 15`, “mean fluorescence intensity” read 49.2 a.u.
`2'F-ANA at 2 3 5 6 12 13`: “mean fluorescence intensity” 158 a.u.
For `2'F-ANA at 1 5 10 12 13 14 15`, “mean fluorescence intensity” read 47.1 a.u.
Under “mean fluorescence intensity”, `2'F-ANA at 2 5 6 7 8 11 13 14` is recorded as 44.3 a.u.
`2'F-ANA at 3 4 5 10 12 15` — result for “mean fluorescence intensity”: 90.2 a.u.
`2'F-ANA at 1 5 9 10 11 14` — result for “mean fluorescence intensity”: 62.4 a.u.
Under “mean fluorescence intensity”, `2'F-ANA at 2 3 5 8 12 13 14` is recorded as 56.4 a.u.
Under “mean fluorescence intensity”, `2'F-ANA at 3 5 6 7 9 10 11 14 15` is recorded as 53.2 a.u.
`2'F-ANA at 4 5 6 8 10 11 12 13 15`: “mean fluorescence intensity” 51.9 a.u.
For `2'F-ANA at 2 3 4 6 7 13`, “mean fluorescence intensity” read 436 a.u.
Under “mean fluorescence intensity”, `2'F-ANA at 7 8 10 12 13 14 15` is recorded as 131 a.u.
`2'F-ANA at 2 3 8 9 12`: “mean fluorescence intensity” 1190 a.u.
`2'F-ANA at 3 7 14` — result for “mean fluorescence intensity”: 772 a.u.
Under “mean fluorescence intensity”, `2'F-ANA at 4 5 7 8 10 12 13` is recorded as 48.6 a.u.
`2'F-ANA at 1 4 7 8 9 11 12 14`: “mean fluorescence intensity” 112 a.u.
`2'F-ANA at 1 2 3 8 11 12 13 14 15` — result for “mean fluorescence intensity”: 96 a.u.
`2'F-ANA at 1 2 4 5 6 8 9 10 14`: “mean fluorescence intensity” 51.5 a.u.
Under “mean fluorescence intensity”, `2'F-ANA at 3 4 5 6 8 11 12 13` is recorded as 223 a.u.

Study 4 — target: UBE2J2 UBC core domain (UniProt Q8N2K1); technique: yeast two-hybrid; matrix: yeast; setting: mostly zero background; reference: not given; reading: higher = stronger interaction
UniProt Q8N2K1, sequence (whole entry, looked up): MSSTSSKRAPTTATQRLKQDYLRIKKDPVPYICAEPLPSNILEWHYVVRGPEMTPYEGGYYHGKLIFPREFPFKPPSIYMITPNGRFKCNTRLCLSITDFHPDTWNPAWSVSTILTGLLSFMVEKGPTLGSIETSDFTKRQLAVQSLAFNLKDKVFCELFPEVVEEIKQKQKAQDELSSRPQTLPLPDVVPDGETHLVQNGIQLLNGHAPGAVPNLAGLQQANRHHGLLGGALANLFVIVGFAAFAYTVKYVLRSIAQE
B1: TRIM22 RING domain (UniProt Q8IYM9); chain VKVDIEKEVTCPICLELLTEPLSLDCGHSFCQACITAKIKESVIISRGESSCPVCQTRFQPGNLRP
B2: ANAPC11 RING domain (UniProt Q9NYG5); chain GICRMAFNGCCPDCKVPGDDCPLVWGQCSHCFHMHCILKWLHAQQVQQHCPMCRQEWKFKE
B3: RNF166 RING domain (UniProt Q96A37); chain GDSGLEAQYTCPICLEVYHRPVAIGSCGHTFCGECLQPCLQVPSPLCPLCRLPFDPKKVDK
B4: RNF183 RING domain (UniProt Q96D59); chain EQQGRELEAECPVCWNPFNNTFHTPKMLDCCHSFCVECLAHLSLVTPARRRLLCPLCRQPTVLASGQP
B5: RNF2 RING domain (UniProt Q99496); chain SPRSLHSELMCPICLDMLKNTMTTKECLHRFCADCIITALRSGNKECPTCRKKLVSKRSLR
For `AEADPLGRFTCPVCLEVYEKPVQVPCGHVFCSACLQECLKPKKPVCGVCRSALAPGVRAV (RNF114 RING domain (UniProt Q9Y508))`, “lacZ reporter activity” read 0.
`B1 (TRIM22 RING domain)`: “lacZ reporter activity” 0.
`LDAASGHPLVCPLCHGQYERPCLLDCFHDFCTGCLRGRATDGRLSCPLCQHQTLVKGPSG (Rnf207 RING domain (UniProt Q3V3A7))`: “lacZ reporter activity” 0.
`MNDVLENELQCIICSEYFIEAVTLNCAHSFCSYCINEWMKRKIECPICRKDIKSKTYSL (RNF8 RING domain (UniProt O76064))`: “lacZ reporter activity” 0.
Under “lacZ reporter activity”, `YCEMGSTFQLCKICAENDKDVKIEPCGHLMCTSCLTAWQESDGQGCPFCRCEIKGTEPII (CBLB RING domain (UniProt Q13191))` is recorded as 0.
`RYRQMEERITCPICIDSHIRLVFQCGHGACAPCGSALSACPICRQPIRDRIQIF (MIB2 RING domain (UniProt Q96AX9))`: “lacZ reporter activity” 0.
Under “lacZ reporter activity”, `QVQSRTKIEECVVCSDKKAAVLFQPCGHMCACENCANLMKKCVQCRAVVERRVPFI (MIB1 RING domain (UniProt Q86YT6))` is recorded as 0.
`B2 (ANAPC11 RING domain)`: “lacZ reporter activity” 4900.
For `B3 (RNF166 RING domain)`, “lacZ reporter activity” read 0.
For `B4 (RNF183 RING domain)`, “lacZ reporter activity” read 0.
`B5 (RNF2 RING domain)`: “lacZ reporter activity” 2870.
`KPDKMEETLTCIICQDLLHDCVSLQPCMHTFCAACYSGWMERSSLCPTCRCPVERICKNH (CHFR RING domain (UniProt Q96EP1))` — result for “lacZ reporter activity”: 0.

Some of these lines once more (study 4):
Under “lacZ reporter activity”, `QVQSRTKIEECVVCSDKKAAVLFQPCGHMCACENCANLMKKCVQCRAVVERRVPFI (MIB1 RING domain (UniProt Q86YT6))` is recorded as 0.
`RYRQMEERITCPICIDSHIRLVFQCGHGACAPCGSALSACPICRQPIRDRIQIF (MIB2 RING domain (UniProt Q96AX9))`: “lacZ reporter activity” 0.
`MNDVLENELQCIICSEYFIEAVTLNCAHSFCSYCINEWMKRKIECPICRKDIKSKTYSL (RNF8 RING domain (UniProt O76064))`: “lacZ reporter activity” 0.
For `B3 (RNF166 RING domain)`, “lacZ reporter activity” read 0.
Under “lacZ reporter activity”, `YCEMGSTFQLCKICAENDKDVKIEPCGHLMCTSCLTAWQESDGQGCPFCRCEIKGTEPII (CBLB RING domain (UniProt Q13191))` is recorded as 0.
`B1 (TRIM22 RING domain)`: “lacZ reporter activity” 0.
For `AEADPLGRFTCPVCLEVYEKPVQVPCGHVFCSACLQECLKPKKPVCGVCRSALAPGVRAV (RNF114 RING domain (UniProt Q9Y508))`, “lacZ reporter activity” read 0.
`LDAASGHPLVCPLCHGQYERPCLLDCFHDFCTGCLRGRATDGRLSCPLCQHQTLVKGPSG (Rnf207 RING domain (UniProt Q3V3A7))`: “lacZ reporter activity” 0.
For `B4 (RNF183 RING domain)`, “lacZ reporter activity” read 0.
`B2 (ANAPC11 RING domain)`: “lacZ reporter activity” 4900.
`B5 (RNF2 RING domain)`: “lacZ reporter activity” 2870.
`KPDKMEETLTCIICQDLLHDCVSLQPCMHTFCAACYSGWMERSSLCPTCRCPVERICKNH (CHFR RING domain (UniProt Q96EP1))` — result for “lacZ reporter activity”: 0.
